Published values of several laboratories.
Lines come from different studies, so protocols differ. Values joined by “and” are separate records of one study, mostly repeats; a detail may differ. Numbers after ± are the reported error.
Sequence of UniProt Q80VM9 (whole entry, looked up): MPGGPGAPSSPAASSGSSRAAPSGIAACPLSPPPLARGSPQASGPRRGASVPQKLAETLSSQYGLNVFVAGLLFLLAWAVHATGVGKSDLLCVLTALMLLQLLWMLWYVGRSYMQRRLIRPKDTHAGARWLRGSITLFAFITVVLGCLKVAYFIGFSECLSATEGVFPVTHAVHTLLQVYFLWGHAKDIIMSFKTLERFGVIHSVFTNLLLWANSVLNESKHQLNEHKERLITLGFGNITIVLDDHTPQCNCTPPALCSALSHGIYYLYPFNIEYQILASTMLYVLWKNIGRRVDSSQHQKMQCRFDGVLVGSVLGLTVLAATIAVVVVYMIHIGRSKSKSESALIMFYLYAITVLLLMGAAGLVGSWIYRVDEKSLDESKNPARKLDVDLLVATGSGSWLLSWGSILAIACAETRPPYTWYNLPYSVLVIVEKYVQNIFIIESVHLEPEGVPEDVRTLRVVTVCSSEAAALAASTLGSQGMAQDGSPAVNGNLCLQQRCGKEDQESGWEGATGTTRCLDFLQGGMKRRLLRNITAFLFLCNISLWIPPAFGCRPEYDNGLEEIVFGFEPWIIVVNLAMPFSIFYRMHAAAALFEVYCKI
Sequence of UniProt Q8NER1 (whole entry, looked up): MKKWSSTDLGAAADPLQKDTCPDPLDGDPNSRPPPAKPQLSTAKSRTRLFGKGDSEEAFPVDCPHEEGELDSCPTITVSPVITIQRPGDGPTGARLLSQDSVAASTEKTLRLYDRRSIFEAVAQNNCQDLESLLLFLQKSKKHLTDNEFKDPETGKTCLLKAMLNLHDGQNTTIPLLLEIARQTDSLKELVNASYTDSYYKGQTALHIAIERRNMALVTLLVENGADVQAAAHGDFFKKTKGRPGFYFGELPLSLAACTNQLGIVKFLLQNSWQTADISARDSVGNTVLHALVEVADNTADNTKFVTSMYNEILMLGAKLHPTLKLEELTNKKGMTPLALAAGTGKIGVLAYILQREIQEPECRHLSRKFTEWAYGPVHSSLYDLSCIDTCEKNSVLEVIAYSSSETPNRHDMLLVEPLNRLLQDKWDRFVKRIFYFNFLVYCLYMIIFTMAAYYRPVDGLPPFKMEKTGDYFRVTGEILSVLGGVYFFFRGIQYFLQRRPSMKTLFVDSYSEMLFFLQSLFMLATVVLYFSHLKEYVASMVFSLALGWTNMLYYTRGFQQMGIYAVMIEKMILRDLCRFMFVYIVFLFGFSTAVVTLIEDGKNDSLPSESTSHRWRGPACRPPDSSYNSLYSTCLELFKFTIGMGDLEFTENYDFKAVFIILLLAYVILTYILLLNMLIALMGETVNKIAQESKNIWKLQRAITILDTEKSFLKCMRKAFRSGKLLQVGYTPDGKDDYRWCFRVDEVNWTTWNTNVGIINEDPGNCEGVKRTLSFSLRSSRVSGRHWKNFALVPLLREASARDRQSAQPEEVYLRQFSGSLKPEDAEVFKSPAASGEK
Sequence of UniProt P22736 (whole entry, looked up): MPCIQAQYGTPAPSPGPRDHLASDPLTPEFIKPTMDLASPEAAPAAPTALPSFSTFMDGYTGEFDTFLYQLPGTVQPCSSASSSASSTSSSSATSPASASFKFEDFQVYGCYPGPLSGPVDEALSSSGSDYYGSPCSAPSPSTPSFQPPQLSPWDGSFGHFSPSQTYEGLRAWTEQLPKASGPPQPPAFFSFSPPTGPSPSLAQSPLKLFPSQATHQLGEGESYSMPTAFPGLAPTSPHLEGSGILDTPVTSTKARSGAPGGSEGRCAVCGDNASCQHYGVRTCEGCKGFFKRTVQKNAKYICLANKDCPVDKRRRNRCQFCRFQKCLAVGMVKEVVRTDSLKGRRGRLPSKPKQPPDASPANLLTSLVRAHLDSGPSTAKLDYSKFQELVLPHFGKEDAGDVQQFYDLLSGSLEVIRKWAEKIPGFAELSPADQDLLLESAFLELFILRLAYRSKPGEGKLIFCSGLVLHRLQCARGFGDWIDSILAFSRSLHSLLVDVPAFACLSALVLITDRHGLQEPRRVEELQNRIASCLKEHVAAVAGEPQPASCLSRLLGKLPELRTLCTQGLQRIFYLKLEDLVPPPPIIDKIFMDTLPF
Sequence of UniProt Q92499 (whole entry, looked up): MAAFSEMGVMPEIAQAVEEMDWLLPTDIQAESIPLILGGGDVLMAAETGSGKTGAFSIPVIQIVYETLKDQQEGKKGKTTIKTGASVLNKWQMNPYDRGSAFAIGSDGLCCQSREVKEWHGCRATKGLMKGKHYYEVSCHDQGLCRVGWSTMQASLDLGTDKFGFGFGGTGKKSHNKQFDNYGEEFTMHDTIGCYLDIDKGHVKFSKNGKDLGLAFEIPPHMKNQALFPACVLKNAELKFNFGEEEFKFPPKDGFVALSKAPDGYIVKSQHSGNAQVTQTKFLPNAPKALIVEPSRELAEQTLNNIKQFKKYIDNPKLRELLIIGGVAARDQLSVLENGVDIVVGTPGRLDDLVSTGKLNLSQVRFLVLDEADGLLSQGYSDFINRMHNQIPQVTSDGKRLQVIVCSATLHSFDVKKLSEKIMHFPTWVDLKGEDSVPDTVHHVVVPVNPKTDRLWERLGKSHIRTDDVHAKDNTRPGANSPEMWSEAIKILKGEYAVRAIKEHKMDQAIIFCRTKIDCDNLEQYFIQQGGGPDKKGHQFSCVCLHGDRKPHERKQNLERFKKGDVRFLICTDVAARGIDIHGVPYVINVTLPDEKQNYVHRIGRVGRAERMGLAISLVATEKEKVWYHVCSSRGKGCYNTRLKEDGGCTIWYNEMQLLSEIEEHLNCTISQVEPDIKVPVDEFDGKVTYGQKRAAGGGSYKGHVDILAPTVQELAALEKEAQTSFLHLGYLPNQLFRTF
Sequence of UniProt P48729 (whole entry, looked up): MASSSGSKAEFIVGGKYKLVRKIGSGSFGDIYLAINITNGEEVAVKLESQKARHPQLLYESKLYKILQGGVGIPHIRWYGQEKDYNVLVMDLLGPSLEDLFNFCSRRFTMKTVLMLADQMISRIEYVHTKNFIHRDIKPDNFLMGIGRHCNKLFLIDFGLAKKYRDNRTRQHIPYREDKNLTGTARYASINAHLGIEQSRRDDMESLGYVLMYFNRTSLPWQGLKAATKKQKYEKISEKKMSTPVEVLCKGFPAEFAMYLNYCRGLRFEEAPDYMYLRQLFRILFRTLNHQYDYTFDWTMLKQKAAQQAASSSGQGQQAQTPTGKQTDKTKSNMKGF
Sequence of UniProt P29597 (whole entry, looked up): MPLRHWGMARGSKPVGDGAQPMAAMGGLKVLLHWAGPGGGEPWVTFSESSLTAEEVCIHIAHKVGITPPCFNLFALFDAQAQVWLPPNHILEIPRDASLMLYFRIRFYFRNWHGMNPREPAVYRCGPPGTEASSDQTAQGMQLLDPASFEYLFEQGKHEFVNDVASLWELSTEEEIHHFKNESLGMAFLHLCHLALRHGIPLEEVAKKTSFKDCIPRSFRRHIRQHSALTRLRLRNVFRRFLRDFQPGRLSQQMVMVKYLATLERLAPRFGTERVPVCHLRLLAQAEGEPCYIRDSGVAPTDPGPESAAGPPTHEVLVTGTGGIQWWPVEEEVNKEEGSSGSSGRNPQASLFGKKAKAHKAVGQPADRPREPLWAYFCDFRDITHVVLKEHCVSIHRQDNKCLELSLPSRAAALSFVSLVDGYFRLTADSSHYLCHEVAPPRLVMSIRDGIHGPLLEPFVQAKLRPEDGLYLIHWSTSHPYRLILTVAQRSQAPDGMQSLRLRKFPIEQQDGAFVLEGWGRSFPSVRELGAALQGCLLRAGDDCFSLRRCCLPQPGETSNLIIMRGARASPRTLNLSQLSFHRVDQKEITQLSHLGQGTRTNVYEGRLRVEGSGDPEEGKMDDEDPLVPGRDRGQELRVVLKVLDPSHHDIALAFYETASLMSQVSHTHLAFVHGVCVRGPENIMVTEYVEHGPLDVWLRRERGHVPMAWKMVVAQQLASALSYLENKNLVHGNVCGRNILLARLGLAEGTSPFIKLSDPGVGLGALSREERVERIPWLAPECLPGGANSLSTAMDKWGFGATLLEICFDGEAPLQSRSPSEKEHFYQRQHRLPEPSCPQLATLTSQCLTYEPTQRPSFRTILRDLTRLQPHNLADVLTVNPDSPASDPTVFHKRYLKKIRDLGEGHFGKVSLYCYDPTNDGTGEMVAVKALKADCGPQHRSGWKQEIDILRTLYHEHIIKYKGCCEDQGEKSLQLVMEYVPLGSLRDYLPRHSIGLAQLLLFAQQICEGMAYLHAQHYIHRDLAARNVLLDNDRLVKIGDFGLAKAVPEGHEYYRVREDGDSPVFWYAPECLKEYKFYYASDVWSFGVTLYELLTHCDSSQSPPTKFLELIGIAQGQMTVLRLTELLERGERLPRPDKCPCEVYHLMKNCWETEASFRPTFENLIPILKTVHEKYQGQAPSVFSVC
Sequence of UniProt Q96SW2 (whole entry, looked up): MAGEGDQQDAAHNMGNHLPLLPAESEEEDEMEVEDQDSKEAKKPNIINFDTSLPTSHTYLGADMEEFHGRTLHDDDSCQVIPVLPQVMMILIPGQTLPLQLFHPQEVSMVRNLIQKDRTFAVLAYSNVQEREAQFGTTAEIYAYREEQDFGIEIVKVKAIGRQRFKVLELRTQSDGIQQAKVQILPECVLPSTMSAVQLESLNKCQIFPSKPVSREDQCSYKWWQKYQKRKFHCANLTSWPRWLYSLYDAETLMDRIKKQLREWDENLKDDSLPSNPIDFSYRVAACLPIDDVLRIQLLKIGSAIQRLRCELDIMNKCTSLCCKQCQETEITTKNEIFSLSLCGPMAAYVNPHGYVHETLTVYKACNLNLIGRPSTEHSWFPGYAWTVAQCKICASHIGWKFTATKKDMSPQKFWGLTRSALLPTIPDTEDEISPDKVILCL

| Structure (SMILES) | target | test | system | conditions | how to read | quantity | result |
| --- | --- | --- | --- | --- | --- | --- | --- |
| c1ccc2c(c1)Nc1ccccc1O2 | DDR2 (Homo sapiens, UniProt Q16832) | collagen peptide binding, inhibitor, solid-phase binding | – | concentration not given, DDR2 ECD 25 nM | – | activity | inactive |
| O=C(CN1CCO[C@H](COc2cccnc2)C1)N1CCc2ccccc21 | HTR5A (Homo sapiens, UniProt P47898) | radioligand binding | – | concentration not given, added: [3H]LSD | – | inhibition | 23% |
| COc1cc(CNC(=O)CCCC/C=C/C(C)C)ccc1O | TRPV1 (Homo sapiens, UniProt Q8NER1) | channel activation, FLIPR calcium | HEK293T | 2.22 µM | higher = more activation | calcium response | 36.2 a.u. and 25 a.u. and 30.8 a.u. and 26.1 a.u. |
| CC(=O)N[C@H](C(=O)N1C[C@H](O)C[C@H]1C(=O)NCc1ccc(-c2scnc2C)cc1)C(C)(C)SCCCCCCNC(=O)C[C@@H]1N=C(c2ccc(Cl)cc2)c2c(sc(C)c2C)-n2c(C)nnc21 | Bromodomain-containing protein 2, BD2 (BRD2, Homo sapiens, UniProt P25440) | binding, ITC | – | 25 °C, compound in cell, protein in syringe | – | ΔG | -40.12 ± 0.251 kJ/mol |
| CCCCCCCCC(=O)c1cc(O)c(O)c(O)c1 | Nuclear receptor subfamily 4 group A member 1 (NR4A1, Homo sapiens, UniProt P22736) | reporter gene, NBRE reporter full-length | – | 10 µM | reference: vehicle | activation | 1.08 fold |
| C=CC(=O)N1CCC(C(=O)NCC(=O)N2CCN(c3nc(-c4cnc(N)nc4C(F)F)nc(N4CCOCC4)n3)CC2)CC1 | Non-receptor tyrosine-protein kinase TYK2, JH2 pseudokinase domain (TYK2, Homo sapiens, UniProt P29597) | KINOMEscan | – | 1 µM | – | remaining binding | 56% |
| O=C(O)[C@@H]1CCCN1c1ncnc2[nH]cnc12 (racemic) | ATP-dependent RNA helicase DDX1 (Homo sapiens, UniProt Q92499) | binding, affinity selection mass spectrometry | – | – | reference: other proteins in batch | log fold enrichment | 0.0684 |
| COc1cc(/C=C/c2ccc(O)cc2)cc(OC)c1 | O-methyltransferase (Sorghum bicolor, UniProt A0A1B6PFV1) | biolayer interferometry | – | added: saturating SAH | reference: apo protein | kon fold increase | 1.76 fold |
| Cc1ccc(C(=O)Nc2ccc3ccccc3c2)o1 | Otop1 (Mus musculus, UniProt Q80VM9) | proton current, whole-cell patch clamp | cells expressing mouse Otop1 | 100 µM, pH 6.0 | – | peak current ratio Ip2/Ip1 | 3.43 and 3.9 and 3.3 and 3.5 and 3.06 and 3.44 |
| C#CCNS(=O)(=O)c1ccc(CCN(Cc2cc(Cl)ccc2OCCC)C(=O)c2ccc(F)cc2)cc1 | Nlrp3 (Mus musculus, UniProt Q8R4B8) | IL-1β release | J774A.1 | added: LPS, ATP | reference: -label | fold potency | 2 fold |
| Cc1ccccc1C(=O)Nc1ccc2c(c1)CN(C1CCC(=O)NC1=O)C2=O (stereo not drawn) | Cereblon/Casein kinase I alpha (CSNK1A1/CRBN, Homo sapiens, UniProt P48729+Q96SW2) | degrader, live-cell HiBiT kinetics | HEK293 LgBiT | 10 µM | – | degradation rate constant | < 1 h⁻¹ |
| O=c1nc(SCc2cc(F)cc(C(F)(F)F)c2)nc(SCc2ccc3nc(Cl)ccc3c2)[nH]1 | TOP2A (Homo sapiens, UniProt P11388) | DNA cleavage | – | 125 µM, replicate 1 | – | linear DNA | 2.76% |

Some of these lines once more:
| Structure (SMILES) | target | test | system | conditions | how to read | quantity | result |
| --- | --- | --- | --- | --- | --- | --- | --- |
| COc1cc(/C=C/c2ccc(O)cc2)cc(OC)c1 | O-methyltransferase (Sorghum bicolor, UniProt A0A1B6PFV1) | biolayer interferometry | – | added: saturating SAH | reference: apo protein | kon fold increase | 1.76 fold |
| Cc1ccc(C(=O)Nc2ccc3ccccc3c2)o1 | Otop1 (Mus musculus, UniProt Q80VM9) | proton current, whole-cell patch clamp | cells expressing mouse Otop1 | 100 µM, pH 6.0 | – | peak current ratio Ip2/Ip1 | 3.43 and 3.9 and 3.3 and 3.5 and 3.06 and 3.44 |
